Published values pooled from the literature.
Numbered parts are unrelated; each lists some results of a single study.
Chain of UniProt Q5VT25 (whole entry, looked up): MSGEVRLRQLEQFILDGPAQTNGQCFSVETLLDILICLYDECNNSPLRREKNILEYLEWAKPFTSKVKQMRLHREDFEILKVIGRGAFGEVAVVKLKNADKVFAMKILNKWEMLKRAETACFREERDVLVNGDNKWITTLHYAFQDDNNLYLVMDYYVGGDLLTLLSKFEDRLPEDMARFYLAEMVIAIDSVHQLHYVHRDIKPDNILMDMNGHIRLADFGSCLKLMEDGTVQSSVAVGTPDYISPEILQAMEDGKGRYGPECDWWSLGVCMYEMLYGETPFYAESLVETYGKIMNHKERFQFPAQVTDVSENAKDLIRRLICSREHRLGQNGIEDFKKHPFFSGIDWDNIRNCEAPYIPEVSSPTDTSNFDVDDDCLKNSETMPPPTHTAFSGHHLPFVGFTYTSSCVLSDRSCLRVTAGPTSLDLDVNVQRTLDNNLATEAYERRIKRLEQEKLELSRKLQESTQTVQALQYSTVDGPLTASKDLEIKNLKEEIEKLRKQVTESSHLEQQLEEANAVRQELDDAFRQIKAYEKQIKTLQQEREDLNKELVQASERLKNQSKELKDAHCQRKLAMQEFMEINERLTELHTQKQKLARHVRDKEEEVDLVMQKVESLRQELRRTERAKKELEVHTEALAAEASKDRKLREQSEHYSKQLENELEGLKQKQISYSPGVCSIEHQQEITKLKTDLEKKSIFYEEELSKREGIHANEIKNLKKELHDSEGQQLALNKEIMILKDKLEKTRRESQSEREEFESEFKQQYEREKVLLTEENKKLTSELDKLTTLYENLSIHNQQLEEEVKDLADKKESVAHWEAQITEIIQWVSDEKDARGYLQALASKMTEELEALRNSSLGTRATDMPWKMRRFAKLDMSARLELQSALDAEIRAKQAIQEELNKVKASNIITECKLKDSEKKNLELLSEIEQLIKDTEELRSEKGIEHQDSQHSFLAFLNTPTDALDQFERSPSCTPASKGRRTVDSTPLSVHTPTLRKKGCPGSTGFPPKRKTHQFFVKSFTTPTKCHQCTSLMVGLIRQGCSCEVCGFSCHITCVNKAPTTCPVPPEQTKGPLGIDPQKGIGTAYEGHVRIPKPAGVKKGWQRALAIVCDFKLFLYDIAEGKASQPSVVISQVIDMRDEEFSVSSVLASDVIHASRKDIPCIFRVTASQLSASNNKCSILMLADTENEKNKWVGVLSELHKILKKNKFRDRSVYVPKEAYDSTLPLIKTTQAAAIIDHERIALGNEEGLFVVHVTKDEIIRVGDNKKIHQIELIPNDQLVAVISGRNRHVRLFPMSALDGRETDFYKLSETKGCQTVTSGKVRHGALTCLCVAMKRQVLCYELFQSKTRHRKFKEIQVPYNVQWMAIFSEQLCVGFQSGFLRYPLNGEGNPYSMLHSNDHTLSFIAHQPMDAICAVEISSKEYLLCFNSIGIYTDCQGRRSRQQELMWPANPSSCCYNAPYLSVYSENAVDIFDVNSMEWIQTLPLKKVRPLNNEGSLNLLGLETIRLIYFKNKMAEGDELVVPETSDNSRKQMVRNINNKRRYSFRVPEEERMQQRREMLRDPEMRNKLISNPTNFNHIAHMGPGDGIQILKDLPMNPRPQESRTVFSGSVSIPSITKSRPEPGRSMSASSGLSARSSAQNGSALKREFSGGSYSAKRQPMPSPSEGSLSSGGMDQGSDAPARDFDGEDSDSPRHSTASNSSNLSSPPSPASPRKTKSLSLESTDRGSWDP
Chain of UniProt Q00526 (whole entry, looked up): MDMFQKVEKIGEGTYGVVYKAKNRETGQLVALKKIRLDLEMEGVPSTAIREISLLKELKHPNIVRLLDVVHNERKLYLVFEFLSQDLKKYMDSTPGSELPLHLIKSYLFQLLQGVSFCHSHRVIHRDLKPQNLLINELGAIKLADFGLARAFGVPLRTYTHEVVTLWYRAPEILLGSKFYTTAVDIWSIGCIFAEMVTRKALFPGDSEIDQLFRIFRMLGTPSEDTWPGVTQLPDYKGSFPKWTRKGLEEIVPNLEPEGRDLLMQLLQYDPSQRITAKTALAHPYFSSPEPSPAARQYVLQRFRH
Chain of UniProt P06213 (whole entry, looked up): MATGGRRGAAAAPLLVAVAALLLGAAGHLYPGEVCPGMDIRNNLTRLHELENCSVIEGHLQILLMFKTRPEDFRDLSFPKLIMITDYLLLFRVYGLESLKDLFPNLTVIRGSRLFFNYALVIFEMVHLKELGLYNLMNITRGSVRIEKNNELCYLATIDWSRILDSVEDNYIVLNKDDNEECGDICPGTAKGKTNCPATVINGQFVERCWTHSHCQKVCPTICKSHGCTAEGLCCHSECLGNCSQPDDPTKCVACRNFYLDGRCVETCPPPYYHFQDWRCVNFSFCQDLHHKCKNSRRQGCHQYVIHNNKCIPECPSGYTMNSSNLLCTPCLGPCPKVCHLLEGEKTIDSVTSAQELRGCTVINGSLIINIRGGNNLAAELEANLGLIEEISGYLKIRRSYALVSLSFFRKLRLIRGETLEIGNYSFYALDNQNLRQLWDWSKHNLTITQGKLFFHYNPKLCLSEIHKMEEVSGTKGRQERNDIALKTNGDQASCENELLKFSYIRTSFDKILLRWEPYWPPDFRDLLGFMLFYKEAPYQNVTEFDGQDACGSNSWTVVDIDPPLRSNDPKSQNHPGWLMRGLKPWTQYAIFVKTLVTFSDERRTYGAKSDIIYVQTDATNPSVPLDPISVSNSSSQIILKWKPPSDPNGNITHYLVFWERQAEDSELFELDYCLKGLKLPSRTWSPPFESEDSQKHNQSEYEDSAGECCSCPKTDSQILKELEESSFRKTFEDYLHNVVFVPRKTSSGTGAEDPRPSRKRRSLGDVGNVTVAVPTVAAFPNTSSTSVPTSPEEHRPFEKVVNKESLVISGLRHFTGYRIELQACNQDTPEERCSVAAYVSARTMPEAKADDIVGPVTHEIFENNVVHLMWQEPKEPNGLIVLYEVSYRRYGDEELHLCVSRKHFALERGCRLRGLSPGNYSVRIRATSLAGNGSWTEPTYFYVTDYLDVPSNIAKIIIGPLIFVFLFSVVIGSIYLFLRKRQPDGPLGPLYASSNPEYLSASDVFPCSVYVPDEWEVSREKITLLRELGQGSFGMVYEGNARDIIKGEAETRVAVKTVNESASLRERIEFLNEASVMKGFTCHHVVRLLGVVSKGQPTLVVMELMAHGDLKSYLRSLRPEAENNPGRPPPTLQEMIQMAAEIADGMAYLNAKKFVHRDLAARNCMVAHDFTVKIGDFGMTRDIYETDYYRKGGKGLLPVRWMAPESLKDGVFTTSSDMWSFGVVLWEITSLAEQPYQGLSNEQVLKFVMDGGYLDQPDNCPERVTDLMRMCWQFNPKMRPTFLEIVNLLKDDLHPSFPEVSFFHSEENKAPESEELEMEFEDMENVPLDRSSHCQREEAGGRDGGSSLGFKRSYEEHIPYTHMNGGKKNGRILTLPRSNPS
Chain of UniProt P06241 (whole entry, looked up): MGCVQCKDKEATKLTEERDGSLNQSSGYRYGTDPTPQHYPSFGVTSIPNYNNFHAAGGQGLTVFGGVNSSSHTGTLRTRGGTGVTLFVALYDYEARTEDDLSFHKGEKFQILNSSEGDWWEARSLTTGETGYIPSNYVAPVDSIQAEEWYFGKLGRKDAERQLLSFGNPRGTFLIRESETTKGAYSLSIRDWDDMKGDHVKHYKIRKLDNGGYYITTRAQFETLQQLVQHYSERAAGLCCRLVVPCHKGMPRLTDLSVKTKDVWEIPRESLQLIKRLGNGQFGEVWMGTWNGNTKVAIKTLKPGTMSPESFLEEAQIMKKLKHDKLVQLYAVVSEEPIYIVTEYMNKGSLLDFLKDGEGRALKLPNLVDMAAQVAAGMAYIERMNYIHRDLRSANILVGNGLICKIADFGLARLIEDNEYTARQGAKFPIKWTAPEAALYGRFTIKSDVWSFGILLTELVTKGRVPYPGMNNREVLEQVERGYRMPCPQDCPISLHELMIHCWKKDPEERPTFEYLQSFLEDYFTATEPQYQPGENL
Chain of UniProt P49674 (whole entry, looked up): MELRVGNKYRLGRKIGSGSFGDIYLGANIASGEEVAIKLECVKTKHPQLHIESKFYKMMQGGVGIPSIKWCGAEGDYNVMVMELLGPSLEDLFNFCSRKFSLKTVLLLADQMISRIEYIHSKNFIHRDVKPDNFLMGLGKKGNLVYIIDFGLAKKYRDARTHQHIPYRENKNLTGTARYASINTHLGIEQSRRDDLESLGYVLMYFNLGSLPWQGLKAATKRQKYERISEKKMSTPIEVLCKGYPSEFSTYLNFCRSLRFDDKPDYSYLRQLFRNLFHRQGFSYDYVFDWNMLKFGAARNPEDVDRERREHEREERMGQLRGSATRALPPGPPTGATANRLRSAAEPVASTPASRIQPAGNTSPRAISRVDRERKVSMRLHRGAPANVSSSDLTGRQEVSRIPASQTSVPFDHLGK
Chain of UniProt O00506 (whole entry, looked up): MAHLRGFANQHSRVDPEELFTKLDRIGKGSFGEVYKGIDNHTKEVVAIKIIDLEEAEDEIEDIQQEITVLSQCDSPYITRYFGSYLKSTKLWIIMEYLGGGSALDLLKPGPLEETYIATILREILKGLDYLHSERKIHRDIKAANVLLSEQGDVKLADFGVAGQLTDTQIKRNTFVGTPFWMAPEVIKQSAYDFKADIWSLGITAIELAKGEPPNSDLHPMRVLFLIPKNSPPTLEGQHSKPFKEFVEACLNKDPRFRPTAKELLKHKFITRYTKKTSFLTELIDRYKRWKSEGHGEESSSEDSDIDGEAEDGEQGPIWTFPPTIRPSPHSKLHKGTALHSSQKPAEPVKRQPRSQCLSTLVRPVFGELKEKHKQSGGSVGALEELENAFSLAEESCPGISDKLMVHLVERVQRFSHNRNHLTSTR

Study 1 — observed: cell-free assay; technique: competition with immobilised ligand; tested at: 1 µM
SMILES: CO[C@@H](C)c1c(Nc2ccc([C@H](N(C)C(=O)C3CCS(=O)(=O)CC3)C(F)(F)F)cc2)cnc2cc(Cl)nn12
The remaining binding was 85% (RIOK1 (Homo sapiens, UniProt Q9BRS2)).
STK36 (Homo sapiens, UniProt Q9NRP7) — remaining binding: 91%.
WNK4 (Homo sapiens, UniProt Q96J92) — remaining binding: 99%.
It gave 84% for remaining binding (NEK5 (Homo sapiens, UniProt Q6P3R8)).
The remaining binding was 88% (TAOK2 (Homo sapiens, UniProt Q9UL54)).
It gave 90% for remaining binding (CDK3 (Homo sapiens, UniProt Q00526)).
For NEK9 (Homo sapiens, UniProt Q8TD19): remaining binding read 77%.
The remaining binding was 92% (MET (Homo sapiens, UniProt P08581, M1250T)).
For GSK3A (Homo sapiens, UniProt P49840): remaining binding read 86%.
CDKL5 (Homo sapiens, UniProt O76039) — remaining binding: 95%.
It gave 86% for remaining binding (CDC42BPA (Homo sapiens, UniProt Q5VT25)).
It gave 87% for remaining binding (SIK2 (Homo sapiens, UniProt Q9H0K1)).
It gave 66% for remaining binding (CSNK1E (Homo sapiens, UniProt P49674)).
It gave 94% for remaining binding (TGFBR1 (Homo sapiens, UniProt P36897)).

Study 2 — host: mouse; sample: microsomes or S9; tested at: 2 µM; time: 0.5 h
`O=C(NCC1CCN(c2ccc(F)cc2)C1)C1CC(O)CN1` (stereo not shown) gave a remaining compound of greater than 100%.
The remaining compound of `Cc1nccc(CNc2c(C#N)cnc3c(F)ccc(Cl)c23)n1` is reported as 41.4%.
`COc1ccc(C(C)Nc2cncc(-c3nncn3C)c2)cc1F` (stereo not shown) gave a remaining compound of 90%.
`CCCC1CN(CC(=O)N(C(C)C)C(C)C)CCN1CC(=O)N(C(C)C)C(C)C` (stereo not shown) gave a remaining compound of 7.05%.
`CN(C1CCNCC1)S(=O)(=O)c1ccc(Cl)s1` gave a remaining compound of 56.9%.
For `Oc1cc(-c2cccc(-c3ccc4c(c3)OCO4)c2)nn1-c1ccccn1`, the remaining compound was 15%.
The remaining compound of `CCN1CCC(N(C)S(=O)(=O)c2c(C)cc(C(C)(C)C)cc2C)CC1` is reported as 4.45%.
`Brc1ccc2c3c(ccnc13)CCO2` has a remaining compound of 0%.
The remaining compound of `CSC1CC2CCC(C1)N2C(=O)c1cc(C2CC2)on1` (stereo not shown) is reported as 0.117%.
With `CCOC(=O)C1(Cc2ccccc2)Nc2ccccc2C1=O` (stereo not shown) the remaining compound was 1.72%.
`COc1cc(OC)nc(Oc2ccc(OC(C)C(=O)O)cc2)n1` (stereo not shown) has a remaining compound of 60.2%.
For `Fc1ccc(-n2cc(C3CCCCN3)nn2)cc1Cl` (stereo not shown), the remaining compound was 76.2%.
With `CN(C(=O)CN1N=C(c2ccccc2)Cn2c(cc3ccccc32)C1=O)C1CCCCC1` the remaining compound was 2.48%.

Study 3 — observed: enzyme activity; action: inhibitor; tested at: 0.5 µM; relative to: control
Structure (SMILES): COc1ccc(S(=O)(=O)N(CCO)c2ccccc2CN(C)CC=Cc2ccc(Cl)cc2)cc1
The remaining activity was 101% (MATK (Homo sapiens, UniProt P42679)).
The remaining activity was 99.8% (FGR (Homo sapiens, UniProt P09769)).
SRC (Homo sapiens, UniProt P12931) — remaining activity: 92.7%.
NEK11 (Homo sapiens, UniProt Q8NG66) — remaining activity: 105%.
It gave 106% for remaining activity (AKT1 (Homo sapiens, UniProt P31749)).
For MARK3 (Homo sapiens, UniProt P27448): remaining activity read 102%.
PKN1 (Homo sapiens, UniProt Q16512) — remaining activity: 110%.
For TAOK3 (Homo sapiens, UniProt Q9H2K8): remaining activity read 91.2%.
It gave 98.1% for remaining activity (ALK (Homo sapiens, UniProt Q9UM73)).
The remaining activity was 103% (Cyclin-dependent kinase 3, with cyclin E (CDK3, Homo sapiens, UniProt Q00526)).
For FLT4 (Homo sapiens, UniProt P35916): remaining activity read 91%.
PASK (Homo sapiens, UniProt Q96RG2) — remaining activity: 103%.
It gave 104% for remaining activity (PRKX (Homo sapiens, UniProt P51817)).
ITK (Homo sapiens, UniProt Q08881) — remaining activity: 97.1%.
NLK (Homo sapiens, UniProt Q9UBE8) — remaining activity: 101%.
It gave 99.6% for remaining activity (STK25 (Homo sapiens, UniProt O00506)).
It gave 100% for remaining activity (CDC42BPA (Homo sapiens, UniProt Q5VT25)).
It gave 103% for remaining activity (FYN (Homo sapiens, UniProt P06241)).
The remaining activity was 102% (LIM domain kinase 1 (LIMK1, Homo sapiens, UniProt P53667)).
The remaining activity was 103% (Insulin receptor (INSR, Homo sapiens, UniProt P06213)).
FER (Homo sapiens, UniProt P16591) — remaining activity: 97.1%.

Study 4 — organism: Sarcocystis neurona; observed: parasite growth; tested at: 10 µM; time: 96 h; notes: first screen; relative to: untreated
`CCn1cc(C(=O)O)c(=O)c2ccc(C)nc21` — result for “log2 fold change”: 0.25.
Under “log2 fold change”, `CC(=O)CC(c1ccccc1)c1c(O)c2ccccc2oc1=O` (stereo not shown) is recorded as 0.06.
`C[C@H]1c2cccc(O)c2C(=O)C2=C(O)[C@]3(O)C(=O)C(C(N)=O)=C(O)[C@@H](N(C)C)[C@@H]3[C@@H](O)[C@@H]21` — result for “log2 fold change”: 0.37.
For `COc1c2occc2cc2ccc(=O)oc12`, “log2 fold change” read 0.09.
Under “log2 fold change”, `CC(Oc1c(Cl)cccc1Cl)C1=NCCN1` (stereo not shown) is recorded as -0.12.
`CCc1oc2ccccc2c1C(=O)c1cc(Br)c(O)c(Br)c1`: “log2 fold change” -0.06.
`CCN(CC)CC1CCCCN1CC(=O)N1c2ccccc2C(=O)Nc2cccnc21` (stereo not shown) — result for “log2 fold change”: 0.0237.
Under “log2 fold change”, `CN(C)CC/C=C1/c2ccccc2COc2ccc(CC(=O)O)cc21` is recorded as -0.18.
`COc1cc(C)c(Cc2cnc(N)nc2N)cc1OC` — result for “log2 fold change”: -1.94.
Under “log2 fold change”, `CCN1CCC[C@H]1CNC(=O)c1c(O)c(Cl)cc(Cl)c1OC` is recorded as -0.62.
For `CC(C)c1nc(CN(C)C(=O)N[C@H](C(=O)N[C@@H](Cc2ccccc2)C[C@H](O)[C@H](Cc2ccccc2)NC(=O)OCc2cncs2)C(C)C)cs1`, “log2 fold change” read -0.95.
`NS(=O)(=O)c1cc(C2(O)NC(=O)c3ccccc32)ccc1Cl` (stereo not shown) — result for “log2 fold change”: 0.33.
Under “log2 fold change”, `CCCCNC(=O)NS(=O)(=O)c1ccc(C)cc1` is recorded as 0.17.
For `C[C@H](CCC(=O)O)[C@H]1CC[C@H]2[C@@H]3C(=O)C[C@@H]4CC(=O)CC[C@]4(C)[C@H]3CC(=O)[C@]12C`, “log2 fold change” read -0.14.
Under “log2 fold change”, `CCn1cc(C(=O)O)c(=O)c2cc(F)c(N3CCNCC3)cc21` is recorded as 0.026.
Under “log2 fold change”, `C[C@@H](c1ncncc1F)[C@](O)(Cn1cncn1)c1ccc(F)cc1F` is recorded as 0.26.

A few entries again (study 3):
It gave 98.1% for remaining activity (ALK (Homo sapiens, UniProt Q9UM73)).
The remaining activity was 103% (Cyclin-dependent kinase 3, with cyclin E (CDK3, Homo sapiens, UniProt Q00526)).
ITK (Homo sapiens, UniProt Q08881) — remaining activity: 97.1%.
It gave 100% for remaining activity (CDC42BPA (Homo sapiens, UniProt Q5VT25)).
